Experimental data gathered from unrelated publications.
Protocols differ between the studies behind these lines. ± marks the error that the study gave. Where no end group is shown, it is not given here. * marks the point of attachment.
ORF1 3C-like protease: ORF1, 3C-like protease (Southampton virus, UniProt Q04544)
B1: E2 DNA-binding domain 279-365 (HPV16, UniProt P03120); chain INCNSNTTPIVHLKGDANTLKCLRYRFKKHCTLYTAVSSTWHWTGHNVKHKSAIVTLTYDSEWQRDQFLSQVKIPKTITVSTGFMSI
B2: BHRF1 1-160 (Epstein-Barr virus, UniProt P03182); chain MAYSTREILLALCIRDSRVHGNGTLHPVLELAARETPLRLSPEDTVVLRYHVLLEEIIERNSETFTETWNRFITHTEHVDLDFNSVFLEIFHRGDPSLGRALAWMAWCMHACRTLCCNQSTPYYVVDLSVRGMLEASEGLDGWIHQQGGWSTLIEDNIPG
B3: RB1 pocket domain A-B, GSGS linker 372-577 (UniProt P06400); chain HTPVRTVMNTIQQLMMILNSASDQPSENLISYFNNCTVNPKESILKRVKDIGYIFKEKFAKAVGQGCVEIGSQRYKLGVRLYYRVMESMLKSEEERLSIQNFSKLLNDNIFHMSLLACALEVVMATYSRSTSQNLDSGTDLSFPWILNVLNLKAFDFYKVIESFIKAEGNLTREMIKHLERCEHRIMESLAWLSDSPLFDLIKQSKGSGSTSLSLFYKKVYRLAYLRLNTLCERLLSEHPELEHIIWTLFQHTLQNEYELMRDRHLDQIMMCSMYGICKVKNIDLKFKIIVTAYKDLPHAVQETFKRVLIKEEEYDSIIVFYNSVFMQRLKTNILQYAST
B4: env gp140 (HIV-2); chain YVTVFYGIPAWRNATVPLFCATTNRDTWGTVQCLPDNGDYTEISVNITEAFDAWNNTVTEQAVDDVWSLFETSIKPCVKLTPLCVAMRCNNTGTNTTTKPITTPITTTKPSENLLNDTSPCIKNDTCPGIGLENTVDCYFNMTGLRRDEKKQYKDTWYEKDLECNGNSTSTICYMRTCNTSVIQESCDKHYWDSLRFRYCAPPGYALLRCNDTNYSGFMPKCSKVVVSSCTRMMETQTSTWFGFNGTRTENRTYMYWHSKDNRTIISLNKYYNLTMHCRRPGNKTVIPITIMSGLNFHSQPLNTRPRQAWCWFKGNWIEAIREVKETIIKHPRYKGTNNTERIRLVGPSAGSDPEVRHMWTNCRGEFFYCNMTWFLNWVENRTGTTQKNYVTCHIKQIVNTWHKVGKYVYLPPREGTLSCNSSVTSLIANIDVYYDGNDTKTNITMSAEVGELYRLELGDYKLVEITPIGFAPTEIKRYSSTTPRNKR
Chain of UniProt Q91XE4 (whole entry, looked up): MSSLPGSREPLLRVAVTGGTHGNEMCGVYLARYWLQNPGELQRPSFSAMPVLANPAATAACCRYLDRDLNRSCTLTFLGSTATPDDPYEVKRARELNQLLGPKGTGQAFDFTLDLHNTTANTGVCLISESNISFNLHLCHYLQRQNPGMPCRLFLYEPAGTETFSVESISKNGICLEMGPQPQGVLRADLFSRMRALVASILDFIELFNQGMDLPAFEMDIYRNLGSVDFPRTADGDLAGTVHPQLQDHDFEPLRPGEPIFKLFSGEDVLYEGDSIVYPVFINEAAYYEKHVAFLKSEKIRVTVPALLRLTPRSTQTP

BM2 transmembrane peptide (Influenza B virus)
pKa (solid-state NMR, measured: His19; VM+ membrane pellets; 243 K, membrane-bound tetramer, no drug, fourth protonation): 4.2

Ac-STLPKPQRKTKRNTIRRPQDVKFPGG (HCV core protein residues 2-27 (hepatitis C virus); N-terminal acetylation)
Kd (Acy3 (Mus musculus, UniProt Q91XE4); SPR; peptide): 170000 ± 13000 nM

B1 (E2 DNA-binding domain 279-365)
binding (BRD4 (Homo sapiens, UniProt O60885-2); pull-down): binds

nitroalkane oxidase (Fusarium oxysporum, UniProt Q8X1D8)
kcat (CCCCCC[N+](=O)[O-]; steady-state kinetics; pH 8, 30 °C, together with: O2): 2 ± 0.1 s⁻¹

B2 (BHRF1 1-160)
ΔH (BECN1 90-171 (Homo sapiens, UniProt A0A024R1X5); ITC): 1.72 ± 0.478 kcal/mol

Crebbp fragment (Mus musculus) (sequence not shown)
binding (E7 fragment H9C/C24A, pS31/pS32, TEMPO label C9 (human papillomavirus 16); paramagnetic relaxation enhancement NMR): binds

QEDIIRNIARHLAQVGDSMDRSIPPG (BID 79-104 (Homo sapiens, UniProt P55957); sequence looked up)
Kd (BHRF1 1-160 (Epstein-Barr virus, UniProt P03182); ITC; peptide): 300 ± 100 nM

Ac-EFQLQ-pNA (N-acetyl, C-pNA; pNA = O=[N+]([O-])c1ccc(N*)cc1)
kcat (ORF1 3C-like protease; substrate, pNA substrate cleavage; pH 8.5): 0.14 s⁻¹

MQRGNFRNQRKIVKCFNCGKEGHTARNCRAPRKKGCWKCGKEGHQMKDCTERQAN (NCp7 mature nucleocapsid (HIV-1))
Kd (HIV-1 reverse transcriptase p66/p51 (HIV-1); fluorescence titration): 30 nM

ESSELTLQELLGEER (UBE3A 403-417)
koff (E6 (UniProt P06931); SPR; peptide): 0.2 s⁻¹

hsaC (Mycobacterium tuberculosis, UniProt P9WNW7)
kcat/Km (Cc1ccc(O)c(O)c1CC[C@@H]1C(=O)CC[C@]2(C)C(=O)CC[C@@H]12; steady-state kinetics; pH 7.5, 25 °C): 5e+06 M⁻¹ s⁻¹

Vif fragment (HIV-1) (sequence not shown)
binding (PPP2R5A (Homo sapiens, UniProt Q15172-1); cryo-EM): binds

YGRKKRRQRRRGSGMSPRREALYRGFRASYDVLRH (TAT peptide 47-57 (HIV-1); N-terminal fluorescein)
Kd (SCN5A 1773-1940 (Homo sapiens, UniProt Q14524); FP; designed binder): 890 nM

B3
binding (E7 1-51, pS31/pS32 (HPV16, UniProt P03129); NMR): binds

CGUACGCGGAAUACUUCGAAA / UCGAAGTAUUCCGCGTACGUG (dsRNA; 5' phosphate, 3' overhangs, fluorescein-dT)
Kd (p19 1-172 (Carnation Italian ringspot virus, UniProt Q66104); stopped-flow fluorescence quenching): 0.37 ± 0.08 nM

Ac-DEFQLQ-pNA (N-acetyl, C-p-nitroanilide; pNA = O=[N+]([O-])c1ccc(N*)cc1)
kcat (ORF1 3C-like protease; substrate, pNA substrate cleavage; pH 8.5): 0.33 s⁻¹

B4 (env gp140)
Kd (CD4 fragment (Homo sapiens); SPR): 684 nM

GFCRCFCGRSSCDCICTR (peptide; cyclic, three disulfides)
Ki (lef (Bacillus anthracis, UniProt P15917); FRET substrate cleavage, enzyme inhibition assay; peptide): 1170 ± 92 nM

Some of these lines once more:
CGUACGCGGAAUACUUCGAAA / UCGAAGTAUUCCGCGTACGUG (dsRNA; 5' phosphate, 3' overhangs, fluorescein-dT)
Kd (p19 1-172 (Carnation Italian ringspot virus, UniProt Q66104); stopped-flow fluorescence quenching): 0.37 ± 0.08 nM

Ac-DEFQLQ-pNA (N-acetyl, C-p-nitroanilide; pNA = O=[N+]([O-])c1ccc(N*)cc1)
kcat (ORF1 3C-like protease; substrate, pNA substrate cleavage; pH 8.5): 0.33 s⁻¹

B4 (env gp140)
Kd (CD4 fragment (Homo sapiens); SPR): 684 nM
